Results collected from several papers.
Protocols differ between the studies behind these lines. Several values in a cell are separate wells, animals, samples, runs or records. ± marks the error that the study gave.
WD repeat-containing protein 91: WD repeat-containing protein 91 (Homo sapiens, UniProt A4D1P6)
NAA80: N-alpha-acetyltransferase 80 (NAA80, Homo sapiens, UniProt Q93015)
Genome polyprotein NS3 helicase domain: Genome polyprotein, NS3 helicase domain (Hepatitis C virus genotype 1b, UniProt Q9WMX2)
WD repeat-containing protein 91 WD40 domain, residues 392–747: WD repeat-containing protein 91, WD40 domain, residues 392–747 (Homo sapiens, UniProt A4D1P6)
ESR1: Estrogen receptor (ESR1, Homo sapiens, UniProt P03372)
Nuclear receptor subfamily 4 group A member 3 ligand-binding domain: Nuclear receptor subfamily 4 group A member 3, ligand-binding domain (Homo sapiens, UniProt Q92570)

CCn1c(=O)[nH]c2cc(C(=O)NC(c3ccc(F)cc3)c3cnn(C)c3)ccc2c1=O (stereo not drawn) — SPR response (WD repeat-containing protein 91; binding, SPR steady state; 0.9375 µM): 8.64 RU
Cc1ccc(N(C)C(=O)/C=C/c2ccco2)cc1 — Hill coefficient (Voltage-dependent N-type calcium channel subunit alpha-1B (Homo sapiens, UniProt Q00975); calcium current, inhibitor; HEK293T): 2 ± 0.6
NC(=O)c1nc[nH]c1N — product formation (NAA80; substrate, DTNB; 2 mM, 30 min, 37 °C, with: acetyl-CoA 500 µM): -0.88 µM
CCCCCCCCCCC/C=C\C(C)(C)/C=C\CCCC(=O)O — inhibition (Genome polyprotein NS3 helicase domain; DNA binding, inhibitor; hepatitis C virus; 100 µM, with: Cy5-dT15 DNA): 0%
Nc1nc2c(ncn2[C@@H]2O[C@H](COP(=O)(O)O)[C@@H](O)[C@H]2O)c(=O)[nH]1 — reaction velocity (GUK1 (Homo sapiens, UniProt Q16774); enzyme activity, NADH-coupled; 7.812 µM, with: NaCl 50 mM): -0.00802 µM/s and 0.0125 µM/s and 0.0154 µM/s
CC(C)(O)c1ccc(-c2nc3cc(NC(=O)c4cnc(Oc5ccccc5)nc4)ccc3c(=O)[nH]2)cc1 — selectivity ratio (TNKS2 (Homo sapiens, UniProt Q9H2K2); PARylation, inhibitor, biochemical PARylation; reference: TNKS1 IC50 over TNKS2 IC50): 49.2
CC1(C)CC2(C)OC(=O)NC2(C)c2ccccc21 (stereo not drawn) — log fold enrichment (WD repeat-containing protein 91; binding, affinity selection mass spectrometry; reference: other proteins in batch): 0.215
N#Cc1cccc2c1CC[C@H]2NC(=O)c1ccc(OCc2nc3ccccc3s2)cc1 — binding (WD repeat-containing protein 91 WD40 domain, residues 392–747; SPR; 45 µM): -19% and -38%
CC(=O)N[C@@H](CS)C(=O)O — inhibition (Genome polyprotein NS3 helicase domain; DNA binding, inhibitor; hepatitis C virus; 100 µM, with: Cy5-dT15 DNA): 0%
COc1cc(/C=C/C(=O)/C=C/c2ccc(O)c(OC)c2)ccc1O — ΔH (haemin; binding, isothermal titration calorimetry; pH 7.4, 37 °C): -99.77 ± 0.13 kJ/mol
O=C(/C=C/c1ccc(O)cc1)c1c(O)cc(O)cc1O — selectivity ratio (ESR1; array formation; PRL-HeLa; reference: EC50 ERβ over EC50 ERα): 4.79
O=C(COP(=O)(O)O)[C@@H](O)[C@H](O)[C@H](O)COP(=O)(O)O — thermal stability ratio (TRIM25 (Homo sapiens, UniProt Q14258); thermal proteome profiling; HepG2 cell lysate; concentration not given, 57 over 37 °C; reference: compound over control): 0.455 and 0.533 and 0.875
N#CC1CCN(C(=O)c2ccc(-c3cccc4cccnc34)cc2)CC1 — binding (WD repeat-containing protein 91 WD40 domain, residues 392–747; SPR; 45 µM): -38% and -35%
Clc1ccc(C(c2c[nH]c3ccccc23)c2c[nH]c3ccccc23)cc1 — activation (Nuclear receptor subfamily 4 group A member 3 ligand-binding domain; reporter gene, Gal4 hybrid reporter; 10 µM; reference: vehicle): 1.1 fold
[H]/N=C(/N)NCC(=O)O — normalised MST signal (SLC6A6 (Homo sapiens, UniProt P31641, G62A); binding, microscale thermophoresis; 15.6 µM, room temperature, with: 50 nM labelled protein; higher = more binding): -0.0141
O=C1CC[C@H](N2Cc3c(ccc4c3OCC43CCN(C[C@@H]4CCC5(CCN(c6ccc([C@@H]7c8ccc(O)cc8CC[C@@H]7c7ccccc7)cc6)CC5)OC4)CC3)C2=O)C(=O)N1 — ER level reduction (ESR1; mouse, MCF7 xenograft; oral, 10 mg/kg daily for 3 days, 6 h; reference: vehicle): 66 to 69%
CN1CCN(c2cc(-c3ccncc3)c(-c3ccc4ccccc4c3)nn2)CC1 — activation (SSTR4 (Homo sapiens, UniProt P31391); agonist, FLIPR; 12.5 µM): -1.2%
CCCCS(=N)(=O)CCC(N)C(=O)O (racemic) — inhibition (Genome polyprotein NS3 helicase domain; DNA binding, inhibitor; hepatitis C virus; 100 µM, with: Cy5-dT15 DNA): 1%
COc1cccc2c(Nc3ccc4[nH]c(C(=O)N/N=C/c5ccc(SC)cc5)cc4c3)cc(C)nc12 — activation (Nuclear receptor subfamily 4 group A member 3 ligand-binding domain; reporter gene, Gal4 hybrid reporter; 1 µM; reference: vehicle): 0.89 ± 0.12 fold
C=CC(=O)N1CCN(c2nc(OC[C@@H]3CCCN3C)nc3c(F)c(-c4nc(N)cc(C)c4C(F)(F)F)c(Cl)cc23)[C@@H](C)C1 — association rate constant (GTPase KRas, GDP-bound (KRAS, Homo sapiens, UniProt P01116, G13D); binding, surface plasmon resonance): 142000 ± 3800 M⁻¹ s⁻¹
COc1ccc(CNC(=O)CCl)cc1OC — FP signal (14-3-3 protein sigma, with ERα phosphopeptide (SFN, Homo sapiens, UniProt P31947); binding, fluorescence polarization; covalent ligand screen, with: phosphorylated ERalpha peptide; reference: control): 88.4%
Nc1ncnc2c1ncn2[C@@H]1O[C@H](COP(=O)(O)CP(=O)(O)OP(=O)(O)O)[C@@H](O)[C@H]1O — specific binding (P2X purinoceptor 1 (P2RX1, Homo sapiens, UniProt P51575, L218T); saturation binding; HEK293; 52 nM): 2950 CCPM and 3480 CCPM
CCN(CC)CCOc1ccc2c(c1)C(=O)c1cc(OCCN(CC)CC)ccc1-2 — Hill slope (ACHE (Homo sapiens, UniProt P22303); enzyme activity): 1
Nc1nc2nccnc2c(=O)[nH]1 — product formation (NAA80; substrate, DTNB; 2 mM, 30 min, 37 °C, with: acetyl-CoA 500 µM): 0.18 µM
CC[C@H](C)[C@H](NC(=O)[C@H](CCC(=O)O)NC(=O)[C@H](CCC(=O)O)NC(=O)[C@@H]1CCCN1C(=O)[C@H](CC(=O)O)NC(=O)[C@H](C)NC(=O)[C@H](CCC(N)=O)NC(=O)[C@@H](NC(=O)[C@H](C)NC(=O)[C@@H](NC(=O)[C@H](CO)NC(=O)[C@@H](NC(=O)[C@H](CCCCN)NC(=O)[C@@H](N)Cc1ccc(O)cc1)[C@@H](C)O)C(C)C)[C@@H](C)O)C(=O)N[C@H](C(=O)N[C@H](C(=O)N[C@@H](CC(C)C)C(=O)N[C@@H](CC(=O)O)C(=O)N[C@@H](CC(=O)O)C(=O)N[C@@H](CC(=O)O)C(=O)N[C@@H](CC(=O)O)C(=O)O)C(C)C)[C@@H](C)CC — -TΔS (Small ubiquitin-related modifier 2 (Homo sapiens, UniProt P61956, C48A); isothermal titration calorimetry; pH 7.4, SUMO2 construct): -10.3 ± 0.2 kcal/mol
Nc1c(Br)cc(Br)cc1CN[C@H]1CC[C@H](O)CC1 — activation (Glutamate receptor 2 (Homo sapiens, UniProt P42262); ion current, agonist, SyncroPatch patch clamp; HEK293; 10 µM): 8%
CCC1(C)CC(=O)NC1=O (stereo not drawn) — inhibition (Genome polyprotein NS3 helicase domain; DNA binding, inhibitor; hepatitis C virus; 100 µM, with: Cy5-dT15 DNA): 0%
CC(=O)NCc1ccccc1N1CCN(C(=O)c2cc3cccn3cn2)CC1 — binding (WD repeat-containing protein 91 WD40 domain, residues 392–747; SPR; 45 µM): -16% and -3%
CN1C2CCCC1CC(NC(=O)c1nn(C)c3ccccc13)C2 (stereo not drawn) — inhibition (Genome polyprotein NS3 helicase domain; DNA binding, inhibitor; hepatitis C virus; 100 µM, with: Cy5-dT15 DNA): 0%
O=O — apparent kcat (HIF1AN (Homo sapiens, UniProt Q9NWT6, Y93A); enzyme activity, substrate, rates, initial, MALDI-TOF MS; varied, pH 7.00, 37.0 °C, Y93A, with: CTAD peptide 80 µM, 2-oxoglutarate 100 µM): 41 ± 5 min⁻¹
COc1cccc(OC)c1OCCNCC1CSc2ccccc2O1 (stereo not drawn) — inhibition (Genome polyprotein NS3 helicase domain; DNA binding, inhibitor; hepatitis C virus; 100 µM, with: Cy5-dT15 DNA): 0%
COc1ccc(CCC(=O)c2ccc(O)cc2)c(OC)c1 — selectivity ratio (ESR1; array formation; PRL-HeLa; reference: EC50 ERβ over EC50 ERα): 0.657
NC(=O)c1cc[n+](CC2=C(C(=O)[O-])N3C(=O)[C@@H](NC(=O)C(c4ccccc4)S(=O)(=O)[O-])[C@H]3SC2)cc1.O.[Na+] (stereo partly drawn) — inhibition (Genome polyprotein NS3 helicase domain; DNA binding, inhibitor; hepatitis C virus; 100 µM, with: Cy5-dT15 DNA): 4%
COc1cc(Nc2ncc3c(n2)-c2ccc(Cl)cc2C(c2c(F)cccc2OC)=NC3)ccc1C(=O)O — remaining activity (FLT4; kinase activity; 1 µM): 23%
CCN(CC)C(=O)c1ccc(O)c(OC)c1 — inhibition (Genome polyprotein NS3 helicase domain; DNA binding, inhibitor; hepatitis C virus; 100 µM, with: Cy5-dT15 DNA): 0%
CC[C@H](C)[C@H](NC(=O)[C@H](C)NC(=O)[C@H](CCSC)NC(=O)[C@H](C)NC(=O)[C@H](C)NC(=O)[C@H](Cc1ccc(O)cc1)NC(=O)[C@@H](NC(=O)[C@H](CCCCN)NC(=O)CNC(=O)[C@@H](NC(=O)[C@@H](NC(=O)[C@H](CCSC)NC(=O)[C@H](Cc1c[nH]cn1)NC(=O)CN)[C@@H](C)O)C(C)C)[C@@H](C)CC)C(=O)N[C@@H](CCSC)C(=O)N[C@@H](CCC(=O)O)C(=O)N[C@@H](Cc1ccc(O)cc1)C(=O)N[C@@H](Cc1ccc(O)cc1)C(=O)N[C@@H](CCCNC(=N)N)C(=O)N[C@@H](CCC(N)=O)C(=O)N[C@@H](CO)C(=O)N[C@@H](CCCCN)C(=O)N[C@@H](C)C(=O)N[C@@H](CCCCN)C(=O)N[C@@H](CCCCN)C(=O)N[C@@H](CC(C)C)C(=O)N[C@@H](CCC(N)=O)C(=O)N[C@@H](C)C(=O)N[C@@H](CCSC)C(=O)N[C@@H](CCCNC(=N)N)C(=O)O — ΔH (Calmodulin-1, Ca2+-bound N-lobe (CALM1, Homo sapiens, UniProt P0DP23); binding, isothermal titration calorimetry; pH 7.4, 15 °C, N-lobe, CaV2.1 IQ domain, with: Ca2+): -12.7 ± 0.92 kJ/mol

For quick reference, copied from above:
CCC1(C)CC(=O)NC1=O (stereo not drawn) — inhibition (Genome polyprotein NS3 helicase domain; DNA binding, inhibitor; hepatitis C virus; 100 µM, with: Cy5-dT15 DNA): 0%
COc1cc(/C=C/C(=O)/C=C/c2ccc(O)c(OC)c2)ccc1O — ΔH (haemin; binding, isothermal titration calorimetry; pH 7.4, 37 °C): -99.77 ± 0.13 kJ/mol
Clc1ccc(C(c2c[nH]c3ccccc23)c2c[nH]c3ccccc23)cc1 — activation (Nuclear receptor subfamily 4 group A member 3 ligand-binding domain; reporter gene, Gal4 hybrid reporter; 10 µM; reference: vehicle): 1.1 fold
CC(=O)NCc1ccccc1N1CCN(C(=O)c2cc3cccn3cn2)CC1 — binding (WD repeat-containing protein 91 WD40 domain, residues 392–747; SPR; 45 µM): -16% and -3%
